Results gathered from unrelated publications.
Numbered parts are unrelated; each lists some results of a single study. Changes are numbered by the printed parent chain.

Series 1 — technique: protein-binding microarray; form: double-stranded DNA, one strand shown; matrix: in vitro; tested at: 940 nM top; notes: 60-bp whole probe; with: salmon DNA 0.4 mg/ml; relative to: random background probes; direction: higher = stronger binding; constant ends, left off below: GCCTAGCAC … GTCTTGATTCGCTTGACGCTGCTG
Target: Interferon regulatory factor 5, full length, phosphomimetic (IRF5, Homo sapiens, UniProt Q13568-2, residues 1-514, S451D/S453D/S456D/S462D)
| Sequence | fitted relative affinity |
| --- | --- |
| TTAGGTTTCGGACTGGTTTAGTGCTAG | 7.15 z-score |
| GGGAATTTAGAAAATGGAAATGTGCTA | 0.00924 z-score |
| TTAGGTTTCGACTTTGGGTTAGTGCTA | 8.57 z-score |
| TTAGGTTTCCTTTCCCTTTAGTGCTAG | 2.39 z-score |
| TTAGATATCAGGATCGATTAGTGCTAG | -0.0191 z-score |
| TTAGGTCGCCTTCTCCTTTAGTGCTAG | 0.194 z-score |
| CTAGGTATCGGGACTGGGTTAGTGCTA | 3.51 z-score |
| TTAGGCATCGACTTTCGGTTAGTGCTA | 2.34 z-score |
| ACATATTTGTTTCCATTTTCGTGCTAG | 1.72 z-score |
| GACGATATCGGGGTTCGAGACGTGCTA | 0.0645 z-score |
| TTAGAATTCAGTTTCGATTAGTGCTAG | 9.34 z-score |
| GACGGTATCCTTACCCTGACGTGCTAG | -0.0398 z-score |
| TTAGGTCTCGACTTTCGGTTAGTGCTA | 4.08 z-score |
| GGCGGACTGGGGACTGGGGACGTGCTA | -0.51 z-score |
| GACGGTATCGCTATCGGGACGTGCTAG | 3.74 z-score |
| GAAGGTATCCTTTTCCTGACGTGCTAG | 0.251 z-score |
| CCTCCCCTTGCTTTCCAATTGTGCTAG | 0.209 z-score |
| GACGATCTCAGAGTGGAGACGTGCTAG | -0.588 z-score |
| TTAGGTTTCGGTTCCCGTTAGTGCTAG | 15.3 z-score |

Series 2 — technique: RNA Bind-n-Seq; form: RNA; matrix: in vitro; tested at: not given; relative to: input RNA pool; direction: higher = stronger binding
Target: RING finger protein unkempt homolog, zinc fingers 1-6, GST-SBP tag (UNK, Homo sapiens, UniProt Q9C0B0, residues 30-357)
Chain of UniProt Q9C0B0 (30-357, looked up): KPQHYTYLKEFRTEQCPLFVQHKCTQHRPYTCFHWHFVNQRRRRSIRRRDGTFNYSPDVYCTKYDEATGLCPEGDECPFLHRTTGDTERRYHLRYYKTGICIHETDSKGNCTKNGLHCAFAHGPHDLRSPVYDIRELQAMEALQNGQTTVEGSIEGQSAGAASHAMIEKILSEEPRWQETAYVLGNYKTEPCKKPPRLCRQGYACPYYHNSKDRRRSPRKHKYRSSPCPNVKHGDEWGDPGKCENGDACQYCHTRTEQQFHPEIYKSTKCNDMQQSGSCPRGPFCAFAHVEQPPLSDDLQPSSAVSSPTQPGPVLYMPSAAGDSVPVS
Notes: RNA with constant flanks, human-mouse chimeric sites, ends assumed
Constant ends, left off below: GGGAGUUCUACAGUCCGACGAUC … CAACAGAGGAUUGAGCAUCA
| Sequence | bound/input enrichment |
| --- | --- |
| GCCACCAAUUCCAGCCAACAUGACCCUUGCUGCCUACAAAGAGAAGAUGAAGGAGCUCCCGCUGGUGUCCUUGUUCUGCUCCUGCUUCCUGGCCGAUCCCCUGAAUAAAUCAUCCUACAA | 0.432 ratio |
| CAGUCCCCGUGUCCCAGUGCAGGACGAUGUGAACAAAAACUCAAAGCGGCCCUUUCUUUGUAGUUCUUUUUUUAAAUAAUGUGCUAUUAUUGUUUGUCUUUUUUUUUUUUUUUUUAAAGA | 6.79 ratio |
| UUUCUAUUGCAGCAAACGAUGCUAAGAAUUAAGGAUCCUAAGAAGUCCCUGGAUUUUUAUACGAGGGUUCUUGGACUGACCCUCCUGCAGAAGCUUGAUUUUCCCAUUAUGAAGUUCUCG | 0.263 ratio |
| GGAAGUACAAUGAUGGAGAUUGAUGGUGACAAAGGCAAGCAGGGCGGGCCCACCUACUACAUAGACACCAAUGCCCUGCGUGUUCCGAGGGAGAACAUGGAGGCCAUCUCACCACUCAAG | 0.209 ratio |
| AGCGUUCAGGAAUUCAUGACCUUUACAAGUCAACUGAUUGUGGAACGCUCGGGGAAAGGCAGCAGAGCUUCUGUCAAAGAACAAGAGUAUCUUUGCCAUGUCUACGUCCGGAGCGACAGU | 0.108 ratio |
| ACCUCCCCCUCCCGCCUCACCCCACCCCCGCUUUUUGGAAAGUUUUUGGCGUUUCUUUUCCUUCCCCAGUUAGAAUUAUUACAGUUUCCCCCGCAAGGGUCUAUCGAUUCACCCUUCGGA | 19.5 ratio |

Series 3 — target: CCNF, cyclin fold, Cln2 fusion (human); technique: yeast growth competition, sequencing; matrix: yeast; notes: strong parent motif; relative to: not given; direction: higher = stronger binding
Starting sequence: USP37 docking peptide (human); PSAKRSLGFLPQP
| Variant | normalised enrichment score |
| --- | --- |
| K4A | 1.86 |
| P1A | 2.24 |
| L10A | 4.66 |
| P11A | 3.02 |
| L7A | 0.531 |
| G8A | 6.5 |

Series 4 — technique: aptamer microarray, sandwich; form: DNA with 2'F-ANA; matrix: in vitro; tested at: 200 nM; with: Cy3 exosite-II aptamer, 400 nM; direction: higher = stronger binding; sequence: GGTTGGTGTGGTTGG
Target: Prothrombin, mature alpha-thrombin (F2, Homo sapiens, UniProt P00734)
Notes: whole 15-mer aptamer, many near background
| Modification | mean fluorescence intensity [a.u.] |
| --- | --- |
| 2'F-ANA at 1 2 3 4 9 11 12 13 | 192 |
| 2'F-ANA at 4 10 12 14 15 | 82.6 |
| 2'F-ANA at 1 2 3 5 6 7 8 9 11 14 15 | 49.8 |
| 2'F-ANA at 1 3 5 7 9 10 11 12 13 14 | 49.5 |
| 2'F-ANA at 1 2 3 4 6 7 9 | 132 |
| 2'F-ANA at 4 11 13 14 15 | 76.7 |
| 2'F-ANA at 1 2 7 9 11 12 15 | 294 |
| 2'F-ANA at 1 2 4 8 12 15 | 399 |
| 2'F-ANA at 2 4 7 12 13 | 456 |
| 2'F-ANA at 1 4 9 12 13 15 | 164 |
| 2'F-ANA at 4 5 7 8 9 10 13 14 | 48.7 |
| 2'F-ANA at 2 4 11 12 | 491 |
| 2'F-ANA at 2 3 6 8 13 15 | 590 |
| 2'F-ANA at 3 4 7 8 11 12 13 | 921 |
| 2'F-ANA at 1 7 8 11 12 | 383 |
| 2'F-ANA at 1 8 10 14 | 73.3 |
| 2'F-ANA at 1 2 3 5 8 10 11 13 14 | 45.3 |
| 2'F-ANA at 1 5 6 7 9 11 12 13 14 15 | 49.4 |
| 2'F-ANA at 2 7 10 | 153 |
| 2'F-ANA at 3 4 5 9 11 13 | 64.5 |
| 2'F-ANA at 2 3 7 10 13 | 534 |
| 2'F-ANA at 2 4 5 6 7 10 11 14 | 47.5 |
| 2'F-ANA at 2 4 7 8 9 10 | 252 |
| 2'F-ANA at 1 2 3 4 6 11 13 15 | 100 |
| 2'F-ANA at 1 2 3 5 6 8 9 11 12 13 | 107 |

Series 5 — technique: RNA Bind-n-Seq; form: RNA; matrix: in vitro; tested at: 365 nM; relative to: no-protein control; direction: higher = stronger binding
Target: RNA binding protein fox-1 homolog 2, RRM domain, GST-SBP tag (RBFOX2, Homo sapiens, UniProt O43251-10, residues 100-194)
Notes: natural RNA segment, single round, ends assumed
Constant ends, left off below: GGGAGUUCUACAGUCCGACGAUC … UGGAAUUCUCGGGUGCCAA
Residues (chain): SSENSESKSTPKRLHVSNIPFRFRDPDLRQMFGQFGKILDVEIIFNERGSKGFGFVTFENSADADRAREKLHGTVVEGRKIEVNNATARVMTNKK
| Sequence | RBNS enrichment (R) |
| --- | --- |
| UGGAGGGAAGGAUUUGGCAAAGGUGCAUGUGUUUGGGCAGGAAAAGGCCAAGUGAAAUCUAUGCCCUACGGGAGCCAUUCCCAAUCCUGAGUUUCUCAGACUUGGCAAUG | 5.65 |
| AAUUACUUUUUUUUACUGUUGCUGGAAGUGUCCCACCUGCUGCUCAUAAUAAAUGCAGAUGUAUAGCGUCCUGUCUGGGGCCCAUUCUGCAGGGGUGGUGGGUGCUGGGA | 0.348 |
| AGUGUGUACUCACCUAAUCACUUGUUAUCCAGUGCCUGUUCUAGGUUUAUGGACUUAACUAUUUCUGUGAUGUUUCAUUUUUAGCCAUGUUAACUCCUAACACAUAUUCU | 0.242 |
| UCAGGUUCUGACAAGGUGCAAAGCGUGGGGAGGCUCUGAGGAAUAUGAAGAGUGGGAAGGCGGCCUAGGCUCCAUGGGCCACUAUGAGAAAUAGCCUCUCUUUCCUGGGA | 0.379 |
| UUUUCUGGGAUAUGUCAUUGGCAAGAGGAAGAACUGGUGUUUUGAAAGCAGUAUGGAUUCUUUAAAUGCCUCUCACUCUUACAAGAUAGUAGGCUUUGAGAUAAUAAACU | 0.48 |
| GUGCCAUCCCCACCUUCACCUCGGAGGGAUGGAGAAAGAAGUGGAGACAGUCCUUUCCCACCAUUCCUGCCUUUAAGCCAAAGAAACAAGCUGUGCAGGCAUGGUCCCUU | 0.28 |
| CUCCUGGCAUGAAAAUAAAACAAAGGUUUUCGUUGUUGUUGUUCCAUUGCCCAUUUCCCCCAUGUUGUCUUUCCCUUGGCUGAUGCCUCCUCUGGGUCACAUUGCUUCUU | 0.896 |
| UCUCUACAGGUGUCUUCUGGGGGGCAGAACCAAUUGGAAGGAAGAAAGGGACCCCUCUCCAGUCCUGGCUCCUUCCUACAUCCUGGGCUCCUGAAGAAGCUGUCUUCCCA | 0.408 |
| UGCCACUCAGAGCCCCUGAGUGAGCCCCCUGGAAUUGUCUGCACCCCCCAAGCCCCAACAGGAAGAAGGGAAAGGUGGGGAAGCUGACGCUCACUCAGUGCCCACUGGGU | 0.292 |
| GUGCAUCUUUUCACGGCACUGCCGAGACGUACUCCCUGGUGUUGCCGCUCACAGGCCCUCAGCUGUCGGUGGUUCCUGCAGCUUUUGUUCCUCGCAUGUAAUCAGGGAGC | 4.94 |
| AAGGAAGAACCAAAAGCCAAGUUAAAGCUGAGAGCACAAGUGCUGCAUGGAAAGGCAAUAUCUCUGGUGGAAAAAACUCGUCUACAUCGACCUCCGUUUGUACAUUCCAU | 41 |
| UGGUUAAAAGAAAAGAACAAUAAGAUGCAUUCAAAGAAUAAUUGCUUUCAGCCUGCUGCCUAAAUCGGCAAAGGAACACAGCGGGAAAGAGAGAUCUGGGUCUUGGUAAU | 1.17 |

Some of these lines once more (series 4):
| Modification | mean fluorescence intensity [a.u.] |
| --- | --- |
| 2'F-ANA at 1 2 3 5 8 10 11 13 14 | 45.3 |
| 2'F-ANA at 1 5 6 7 9 11 12 13 14 15 | 49.4 |
| 2'F-ANA at 2 7 10 | 153 |
| 2'F-ANA at 3 4 5 9 11 13 | 64.5 |
| 2'F-ANA at 2 3 7 10 13 | 534 |
| 2'F-ANA at 2 4 5 6 7 10 11 14 | 47.5 |
| 2'F-ANA at 2 4 7 8 9 10 | 252 |
| 2'F-ANA at 1 2 3 4 6 11 13 15 | 100 |
